Measurements pooled from the literature.
Each line is one published result; not all experiments were run side by side. “And” joins repeats or separate records; there may be more than shown. ± marks the error that the study gave.

Clc1cc2c(cc1Cl)Oc1cc(Cl)c(Cl)cc1O2  number of changed metabolites (untargeted metabolomics; Sprague-Dawley rat, female, urine; dose not given; reference: vehicle): 941
C[C@]12CC[C@H](n3ccnc3)CC1=CC[C@@H]1[C@@H]2CC[C@]2(C)C(n3cnc4ccccc43)=CC[C@@H]12  full-length AR protein level (Western blot; male NRG mouse, CWR22Rv1 xenograft, tumour; dose not given, day 16): decreased
CCCCC1CNC2CCc3ccc(OC)cc3C12.Cl (racemic)  downregulated genes count (RNA sequencing; SAMP8 mice, hippocampus; intracerebroventricular, 1.0 µg/µL, 24 h; reference: vehicle): 77
CCSc1nc2ccccc2n1Cc1nnc(-c2ccc(C)o2)o1  EC50 (relaxation, calcium antagonist; isolated rabbit jejunum; together with: 80 mM K+ contraction): 0.47 ± 0.07 µg/mL
C[C@@H](NC(=O)c1ccc(C#Cc2cccc(F)c2)cn1)C(C)(C)O  spontaneous spike inter-event interval (field recording; rat hippocampal slice CA3; 10 µM, together with: MTEP 10 µM, 10 min pretreatment; reference: baseline): 98.8 ± 11.8%
CCSc1nc2ccccc2n1Cc1nnc(-c2ccccc2OC)o1  EC50 (relaxation; isolated rabbit jejunum; spontaneous contractions): 0.28 ± 0.01 µg/mL
COc1ccc(O)c(C(C)(C)C)c1  absorbance (Cu2+ reduction, CUPRAC; 30 µg/mL): 0.626 ± 0.043
Cc1nc(Nc2ccc(CC(=O)O)cc2)nc(Nc2ccc(F)c(C(F)(F)F)c2)c1C  PDE4B expression (C57BL/6J mouse, high-fat diet MASH model, liver; intraperitoneal, 0.3 mg/kg daily, 60% fat diet for 12 weeks, dosed final four weeks; reference: untreated): no effect
CSCC[C@@H]1NC(=O)[C@H](Cc2c[nH]c3ccccc23)NC(=O)[C@@H](NC(=O)CCNC(=O)[C@H](CCC(N)=O)NC(=O)[C@@H]2CCCN2C(=O)[C@@H]2CCCN2C(=O)[C@H](CCCNC(=N)N)NC(=O)[C@H](CCCNC(=N)N)NC(=O)[C@H](CCCNC(=N)N)NC(=O)[C@H](CCC(N)=O)NC(=O)[C@H](CCCNC(=N)N)NC(=O)[C@H](CCCNC(=N)N)NC(=O)[C@H](CCCCN)NC(=O)[C@H](CCCCN)NC(=O)[C@H](CCCNC(=N)N)NC(=O)CN)CSSC[C@@H](C(=O)O)NC(=O)[C@H]([C@@H](C)O)NC(=O)CNC(=O)[C@H](CC(C)C)NC(=O)[C@H](Cc2c[nH]cn2)NC(=O)[C@H](CCCNC(=N)N)NC(=O)[C@@H]2CCCN2C(=O)[C@H](CO)NC1=O  CK2α' staining (immunohistochemistry, refers to: CSNK2A2; NCI-H226 xenograft mouse, tumour tissue; intravenous, 2 mg/kg, day 16): 0.08 IOD/area
CNC(=O)c1c(C)oc2cc(Oc3ccnc4cc(OCCN5CCOCC5)ccc34)ccc12  decrease in Ktrans (DCE-MRI; human, tumour; 4 mg twice daily, day 2): 31.8%
CCOc1cccc(-c2nnc(Cn3c(SCC)nc4ccccc43)o2)c1O  EC50 (relaxation, calcium antagonist; isolated rabbit jejunum; together with: 80 mM K+ contraction): 0.3 ± 0.09 µg/mL
CC[C@H](C)[C@@H]1NC(=O)[C@@H]2CCCN2C(=O)[C@H](CC(C)C)NC(=O)[C@H](CC(C)C)NC(=O)CNC(=O)[C@@H](NC(=O)[C@@H](NC(=O)[C@H](CC(=O)O)NC(=O)CNC(=O)[C@@H](NC(=O)[C@H](C)NC(=O)CNC(=O)[C@H](CCCCN)NC(=O)[C@H](CC(C)C)NC(=O)[C@H](CC(C)C)NC(=O)[C@H](CCCCN)NC(=O)CNC(=O)[C@@H](NC(=O)[C@@H](N)CC(C)C)C(C)C)C(C)C)C(C)C)CSSC[C@@H](C(=O)O)NC1=O  log2 fold change (RNA-seq, refers to: Tacstd2; mouse, traumatic brain injury model, frontal cortex and hippocampus; dose not given; reference: TBI alone): -2.99
CN1CCN(S(=O)(=O)c2cc([N+](=O)[O-])ccc2N(CCOS(C)(=O)=O)CCOS(C)(=O)=O)CC1  EFS delay (T-C) (NSG mice, sample BI PDX; intraperitoneal, 25 mg/kg weekly x3; reference: vehicle): 34.9 days
CCCCC1(CCCC)CN(c2ccccc2)c2cc(SC)c(OCC(=O)N[C@@H](C(=O)NCC(=O)O)c3ccccc3)cc2S(=O)(=O)C1  serum HDL-C (refers to: HDL cholesterol; human, serum; 5 mg once daily, day 8): 46.7 mg/dL
C=CCNc1c(O)cc2c(O)c1C[C@@H](C)C[C@H](OC)[C@H](O)[C@@H](C)/C=C(\C)[C@H](OC(N)=O)[C@@H](OC)/C=C\C=C(/C)C(=O)N2  patients with stable disease (RECIST v1.0; human GIST; concentration not given, best response): 70%
C[C@H]1O[C@@H](O[C@H]2CC[C@@]3(C)[C@@H](CC[C@]4(C)[C@@H]3C=C[C@]35OC[C@@]6(CCC(C)(C)C[C@H]63)[C@@H](O)C[C@]54C)[C@]2(C)CO)[C@H](O)[C@@H](O[C@@H]2O[C@H](CO)[C@@H](O)[C@H](O)[C@H]2O)[C@H]1O  triglycerides (Mus musculus, pair-fed, AAV8-TBG-Null vector, serum; oral, high dose, 5 h): 0.448 mM and 0.582 mM and 0.353 mM and 0.725 mM and 0.42 mM and 0.826 mM
C[C@]1(CO)Cc2ncn(-c3ccc(C#N)c(Cl)c3)c2C(=O)O1  urinary excretion (aldosterone synthesis, inhibitor, refers to: sodium; healthy Japanese adults, urine; 3 mg, 0-24 h after first dose, multiple rising dose): 149 mmol
CC[C@@H](C)[C@@H](NC(=O)[C@@H](Cc1ccc(O)cc1)NC(=O)[C@H]1CCCN1C(=O)[C@@H](CCCNC(=N)N)NC(=O)[C@H](N)Cc1c[nH]cn1)C(=O)N[C@H](C)C(=O)N[C@H](Cc1c[nH]cn1)C(=O)N[C@H](CCCNC(=N)N)C(=O)N[C@H](CCCCNC(=O)c1cccc(S(=O)(=O)F)c1)C(=O)N[C@H](Cc1ccc(O)cc1)C(=O)N[C@H](CO)C(=O)N[C@H](Cc1ccccc1)C(N)=O  CD8+ T cells (flow cytometry; mouse orthotopic GL261-Luc glioma, brain tumour; dose not given, 2 weeks treatment; reference: CD45+ cells): 64%
Cn1cc(Nc2nccc(-c3ccc4c(c3)CN(C3COC3)CC[C@H]4NC(=O)c3cn(C(C)(C)C)nn3)n2)cn1  pathway activation z-score (refers to: lymphotoxin β receptor signaling; splenic B cells, mice; 30 mg/kg, IgD-activated in vivo; reference: vehicle, direction not given): 2.84
Cc1cn(-c2cc(NC(=O)c3ccc(C)c(Nc4nccc(-c5cccnc5)n4)c3)cc(C(F)(F)F)c2)cn1  ADAS-Cog maze errors change (human patients; dose not given, 6 months vs baseline, within treated group, unit not given; reference: baseline): 1.5
CCSc1nc2ccccc2n1Cc1nnc(-c2ccc(F)c(OC)c2)o1  EC50 (relaxation, calcium antagonist; isolated rabbit jejunum; together with: 80 mM K+ contraction): 0.45 ± 0.05 µg/mL
COc1ccc([C@@]23Oc4cc(OC)cc(OC)c4[C@@]24N=C(C2CC2)N[C@@]4(O)[C@H](C(=O)N(C)OC)[C@H]3c2ccccc2)cc1  EC50 (mRNA translation; Krebs-2 cell extracts): 0.055 µM

For quick reference, copied from above:
C[C@]12CC[C@H](n3ccnc3)CC1=CC[C@@H]1[C@@H]2CC[C@]2(C)C(n3cnc4ccccc43)=CC[C@@H]12  full-length AR protein level (Western blot; male NRG mouse, CWR22Rv1 xenograft, tumour; dose not given, day 16): decreased
CCCCC1CNC2CCc3ccc(OC)cc3C12.Cl (racemic)  downregulated genes count (RNA sequencing; SAMP8 mice, hippocampus; intracerebroventricular, 1.0 µg/µL, 24 h; reference: vehicle): 77
